# Assay results from different studies.
# Each line is one published result; not all experiments were run side by side. Numbers after ± are the reported error.
# CDC42BPA: Serine/threonine-protein kinase MRCK alpha (CDC42BPA, Homo sapiens, UniProt Q5VT25)
# Sequence of UniProt Q5VT25 (whole entry, looked up): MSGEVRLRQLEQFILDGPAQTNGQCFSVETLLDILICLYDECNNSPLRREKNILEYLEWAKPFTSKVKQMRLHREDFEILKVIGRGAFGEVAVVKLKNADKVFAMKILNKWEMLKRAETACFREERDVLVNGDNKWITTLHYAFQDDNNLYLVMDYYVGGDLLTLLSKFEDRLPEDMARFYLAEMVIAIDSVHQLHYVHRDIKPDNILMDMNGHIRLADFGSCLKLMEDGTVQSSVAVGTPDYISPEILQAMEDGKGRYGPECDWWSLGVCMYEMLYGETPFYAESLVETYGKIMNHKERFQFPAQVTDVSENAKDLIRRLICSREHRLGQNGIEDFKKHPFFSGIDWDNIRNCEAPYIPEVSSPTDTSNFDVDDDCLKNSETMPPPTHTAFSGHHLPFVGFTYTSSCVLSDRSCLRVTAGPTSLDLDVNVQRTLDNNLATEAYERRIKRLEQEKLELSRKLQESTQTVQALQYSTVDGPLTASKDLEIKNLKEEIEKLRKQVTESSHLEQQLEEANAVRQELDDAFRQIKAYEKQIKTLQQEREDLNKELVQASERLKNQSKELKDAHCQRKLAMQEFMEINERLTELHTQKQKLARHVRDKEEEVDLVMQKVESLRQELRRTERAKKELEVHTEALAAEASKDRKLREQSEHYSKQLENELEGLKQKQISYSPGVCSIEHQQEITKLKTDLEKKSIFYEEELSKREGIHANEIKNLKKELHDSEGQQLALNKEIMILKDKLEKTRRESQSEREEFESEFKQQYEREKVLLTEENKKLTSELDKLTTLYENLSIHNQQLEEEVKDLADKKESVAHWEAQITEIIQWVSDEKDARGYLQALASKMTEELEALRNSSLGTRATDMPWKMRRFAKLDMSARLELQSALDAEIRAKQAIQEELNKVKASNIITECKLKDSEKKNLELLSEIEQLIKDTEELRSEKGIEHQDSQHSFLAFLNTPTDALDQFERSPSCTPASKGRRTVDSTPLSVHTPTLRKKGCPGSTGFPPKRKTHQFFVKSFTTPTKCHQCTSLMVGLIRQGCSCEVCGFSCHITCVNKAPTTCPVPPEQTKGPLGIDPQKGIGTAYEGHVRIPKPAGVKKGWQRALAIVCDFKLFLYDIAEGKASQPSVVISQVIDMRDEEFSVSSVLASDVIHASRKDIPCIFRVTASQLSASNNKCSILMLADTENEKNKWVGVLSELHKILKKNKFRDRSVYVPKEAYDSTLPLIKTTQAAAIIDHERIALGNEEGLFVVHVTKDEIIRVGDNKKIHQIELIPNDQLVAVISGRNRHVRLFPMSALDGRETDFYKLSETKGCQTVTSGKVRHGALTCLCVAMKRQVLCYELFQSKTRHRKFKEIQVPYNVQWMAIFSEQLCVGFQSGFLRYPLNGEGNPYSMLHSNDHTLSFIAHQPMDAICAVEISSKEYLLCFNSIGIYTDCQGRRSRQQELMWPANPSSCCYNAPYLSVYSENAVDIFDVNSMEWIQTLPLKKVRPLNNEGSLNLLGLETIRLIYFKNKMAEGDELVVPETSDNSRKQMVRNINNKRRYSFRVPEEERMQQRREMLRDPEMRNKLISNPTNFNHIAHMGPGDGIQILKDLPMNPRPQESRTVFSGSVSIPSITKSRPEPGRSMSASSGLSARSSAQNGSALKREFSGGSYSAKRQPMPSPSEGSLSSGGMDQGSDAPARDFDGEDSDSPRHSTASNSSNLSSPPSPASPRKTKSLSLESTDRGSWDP
# CDK2 with cyclin A2: Cyclin-dependent kinase 2, with cyclin A2 (CDK2, Homo sapiens, UniProt P24941)
# FGFR2: Fibroblast growth factor receptor 2 (FGFR2, Homo sapiens, UniProt P21802)
# Sequence of UniProt P21802 (whole entry, looked up): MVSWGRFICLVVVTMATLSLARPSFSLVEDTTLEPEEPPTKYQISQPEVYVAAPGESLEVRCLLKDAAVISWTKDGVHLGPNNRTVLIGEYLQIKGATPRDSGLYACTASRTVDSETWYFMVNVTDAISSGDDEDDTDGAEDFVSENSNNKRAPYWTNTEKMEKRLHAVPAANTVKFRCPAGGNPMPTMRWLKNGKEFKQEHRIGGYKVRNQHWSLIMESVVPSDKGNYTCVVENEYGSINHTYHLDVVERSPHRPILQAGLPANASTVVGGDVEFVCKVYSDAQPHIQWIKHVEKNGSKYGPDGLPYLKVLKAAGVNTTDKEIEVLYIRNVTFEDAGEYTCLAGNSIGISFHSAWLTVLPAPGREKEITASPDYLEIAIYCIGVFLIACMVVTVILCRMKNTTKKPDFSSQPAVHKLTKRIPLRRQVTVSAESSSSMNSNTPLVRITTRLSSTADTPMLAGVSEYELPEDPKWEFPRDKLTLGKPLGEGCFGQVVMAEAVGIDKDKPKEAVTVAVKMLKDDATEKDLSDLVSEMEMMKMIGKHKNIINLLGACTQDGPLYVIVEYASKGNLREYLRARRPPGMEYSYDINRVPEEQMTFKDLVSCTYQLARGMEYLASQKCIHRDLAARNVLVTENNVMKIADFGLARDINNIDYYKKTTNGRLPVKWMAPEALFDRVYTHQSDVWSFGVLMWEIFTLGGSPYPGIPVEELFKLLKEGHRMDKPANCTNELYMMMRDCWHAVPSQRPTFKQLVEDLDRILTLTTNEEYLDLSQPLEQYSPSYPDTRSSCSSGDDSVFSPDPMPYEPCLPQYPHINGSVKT
# ERBB4: Receptor tyrosine-protein kinase erbB-4 (ERBB4, Homo sapiens, UniProt Q15303)
# Sequence of UniProt Q15303 (whole entry, looked up): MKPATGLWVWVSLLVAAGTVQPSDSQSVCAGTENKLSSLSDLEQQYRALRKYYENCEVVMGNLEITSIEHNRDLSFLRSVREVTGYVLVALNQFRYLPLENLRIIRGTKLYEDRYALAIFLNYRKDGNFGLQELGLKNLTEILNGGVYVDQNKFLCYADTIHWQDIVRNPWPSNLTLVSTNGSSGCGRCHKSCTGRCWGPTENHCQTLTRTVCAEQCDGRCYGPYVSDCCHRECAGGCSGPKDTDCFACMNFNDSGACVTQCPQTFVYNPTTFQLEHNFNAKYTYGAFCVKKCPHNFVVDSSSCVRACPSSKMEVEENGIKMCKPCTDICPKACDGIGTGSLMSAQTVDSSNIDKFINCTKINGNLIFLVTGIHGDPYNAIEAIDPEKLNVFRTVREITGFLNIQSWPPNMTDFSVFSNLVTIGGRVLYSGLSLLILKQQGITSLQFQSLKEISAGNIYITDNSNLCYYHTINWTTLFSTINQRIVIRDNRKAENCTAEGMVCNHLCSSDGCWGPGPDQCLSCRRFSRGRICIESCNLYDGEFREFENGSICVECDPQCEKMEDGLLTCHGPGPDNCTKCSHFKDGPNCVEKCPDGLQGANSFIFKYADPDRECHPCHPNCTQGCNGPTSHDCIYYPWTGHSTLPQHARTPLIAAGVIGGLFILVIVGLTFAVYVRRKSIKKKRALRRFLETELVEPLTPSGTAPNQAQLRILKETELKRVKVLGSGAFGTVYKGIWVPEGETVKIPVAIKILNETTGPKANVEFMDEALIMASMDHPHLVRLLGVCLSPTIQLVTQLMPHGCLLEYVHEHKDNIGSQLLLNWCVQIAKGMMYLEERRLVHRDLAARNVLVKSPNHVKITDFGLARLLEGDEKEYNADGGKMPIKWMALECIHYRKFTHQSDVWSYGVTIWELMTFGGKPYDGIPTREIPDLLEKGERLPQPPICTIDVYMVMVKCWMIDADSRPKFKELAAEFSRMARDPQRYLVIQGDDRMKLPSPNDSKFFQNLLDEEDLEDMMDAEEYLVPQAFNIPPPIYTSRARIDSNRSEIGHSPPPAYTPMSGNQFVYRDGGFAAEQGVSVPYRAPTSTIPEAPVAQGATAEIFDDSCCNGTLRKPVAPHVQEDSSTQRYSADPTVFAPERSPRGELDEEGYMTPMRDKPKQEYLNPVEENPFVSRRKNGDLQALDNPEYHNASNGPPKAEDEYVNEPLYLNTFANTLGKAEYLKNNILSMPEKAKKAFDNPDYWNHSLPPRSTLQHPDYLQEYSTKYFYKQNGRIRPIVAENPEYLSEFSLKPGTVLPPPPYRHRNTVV
# Sequence of UniProt Q9H3Y6 (whole entry, looked up): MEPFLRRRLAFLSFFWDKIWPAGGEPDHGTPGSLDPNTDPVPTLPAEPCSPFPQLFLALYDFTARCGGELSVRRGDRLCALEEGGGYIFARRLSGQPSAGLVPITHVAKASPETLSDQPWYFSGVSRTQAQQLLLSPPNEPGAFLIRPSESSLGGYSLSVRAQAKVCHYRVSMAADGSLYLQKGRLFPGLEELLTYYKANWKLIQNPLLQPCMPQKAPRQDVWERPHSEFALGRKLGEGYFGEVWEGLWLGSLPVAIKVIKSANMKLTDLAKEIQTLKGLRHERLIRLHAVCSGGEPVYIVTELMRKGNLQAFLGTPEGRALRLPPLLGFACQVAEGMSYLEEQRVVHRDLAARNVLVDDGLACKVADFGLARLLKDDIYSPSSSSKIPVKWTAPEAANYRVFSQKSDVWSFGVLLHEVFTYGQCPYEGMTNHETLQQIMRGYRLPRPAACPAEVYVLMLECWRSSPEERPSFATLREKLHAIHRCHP
# Sequence of UniProt Q8IWQ3 (whole entry, looked up): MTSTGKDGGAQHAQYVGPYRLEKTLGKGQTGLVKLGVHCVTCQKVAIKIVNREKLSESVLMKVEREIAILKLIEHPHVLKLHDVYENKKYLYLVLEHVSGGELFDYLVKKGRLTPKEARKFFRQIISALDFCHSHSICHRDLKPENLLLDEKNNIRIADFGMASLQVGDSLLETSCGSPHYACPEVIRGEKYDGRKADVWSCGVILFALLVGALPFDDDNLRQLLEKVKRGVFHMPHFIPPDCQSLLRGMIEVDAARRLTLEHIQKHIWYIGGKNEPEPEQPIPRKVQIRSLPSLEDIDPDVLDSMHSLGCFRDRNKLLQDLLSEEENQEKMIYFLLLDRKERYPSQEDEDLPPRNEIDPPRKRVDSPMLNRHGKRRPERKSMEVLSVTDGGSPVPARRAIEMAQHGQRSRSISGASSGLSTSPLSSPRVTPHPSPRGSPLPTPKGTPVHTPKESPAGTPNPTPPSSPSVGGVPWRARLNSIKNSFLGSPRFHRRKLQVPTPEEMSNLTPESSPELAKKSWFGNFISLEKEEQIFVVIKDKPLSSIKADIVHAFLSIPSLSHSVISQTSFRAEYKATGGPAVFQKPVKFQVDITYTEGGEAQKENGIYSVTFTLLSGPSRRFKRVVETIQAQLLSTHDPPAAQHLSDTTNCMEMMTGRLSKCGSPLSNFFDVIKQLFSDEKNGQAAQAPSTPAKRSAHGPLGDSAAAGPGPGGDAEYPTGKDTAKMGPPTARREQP
SMILES,target,assay,setting,scale,remaining activity
COc1cc(N2CCN(C)CC2)ccc1Nc1nc(N)n(C(=S)NCc2c(Cl)cccc2Cl)n1,"CIT (Homo sapiens, UniProt O14578)",enzyme activity,10 µM,baseline: control,5.4%
Cc1cc(Nc2cc(N3CCN(C)CC3)nc(Sc3ccc(NC(=O)C4CC4)cc3)n2)[nH]n1,CDC42BPA,"kinase activity, KinaseProfiler","0.03 µM, species human",baseline: control,130%
Cc1ccc(NC(=O)c2ccc(C)c(C(F)(F)F)c2)cc1C#Cc1nn(C2CCC(O)CC2)c2ncnc(N)c12 (stereo not shown),"Phosphatidylinositol 4,5-bisphosphate 3-kinase catalytic subunit delta isoform, with p85 alpha (Pik3cd, Mus musculus, UniProt O35904)","enzyme activity, inhibitor","10 µM, p110d/p85a)(m mouse, added: ATP 10 µM",,78%
CNC(=O)c1cc(Oc2ccc(NC(=O)Nc3ccc(Cl)c(C(F)(F)F)c3)cc2)ccn1,CDK2 with cyclin A2,kinase activity,1000 nM,,18.6%
CNc1ncc2c(/C=C/C(=O)N3CCC(OC)CC3)nn(Cc3cccc(C(F)(F)F)c3)c2n1,"PRKD1 (Homo sapiens, UniProt Q15139)","kinase activity, inhibitor",1 µM,baseline: untreated control,90%
O=C(NC1CCC1)c1ccc2nc(-c3cccc(NS(=O)(=O)NCCN4CCCCC4)c3)cn2c1,"PRKACB (Homo sapiens, UniProt P22694)",enzyme activity,10 µM,,100%
CN(C)CC#Cc1ccc2[nH]c3c(c2c1)-c1nc(N)ncc1CCC3,"TSSK2 (Homo sapiens, UniProt Q96PF2)","kinase activity, inhibitor, radiometric","1 µM, added: ATP at Km",,77%
CC(C)Oc1cc(N2CCN(C)CC2)ccc1Nc1nc(N)n(C(=O)NCc2ccccc2S(=O)(=O)C(C)C)n1,CDC42BPA,enzyme activity,10 µM,baseline: control,23%
C=CC(=O)N1CCC([C@@H]2CCNc3c(C(N)=O)c(-c4ccc(Oc5ccccc5)cc4)nn32)CC1,FGFR2,"kinase activity, inhibitor, HotSpot radiometric","100 nM, added: ATP 10 µM",,94.3 ± 0.3%
Cc1cc(NC(=O)c2cccc(NC(=O)/C=C/CN(C)C)c2)ccc1Nc1nccc(-c2cccnc2)n1,"MAPK9 (Homo sapiens, UniProt P45984)","enzyme activity, inhibitor","0.5487 µM, unit not given",baseline: vehicle,0.0861
CC#CC(=O)N1CCC[C@H]1c1nc(-c2ccc(C(=O)Nc3ccccn3)cc2)c2c(N)nccn12,FGFR2,"kinase activity, inhibitor, HotSpot radiometric","100 nM, added: ATP 10 µM",,99.3 ± 1.5%
CC(=O)Nc1c(N)nc(SCC(=O)NN)[nH]c1=O,CDK2 with cyclin A2,kinase activity,10 nM,,77%
COc1cc(-c2cncc3c2CN(C)Cc2cc(N4CCNCC4)ccc2-3)cc(OC)c1OC,"HIPK2 (Homo sapiens, UniProt Q9H2X6)",kinase activity,"1 µM, human enzyme, added: ATP 10 µM",baseline: DMSO control,110%
COc1cc(Nc2ncc3c(n2)-c2ccc(Cl)cc2C(c2c(F)cccc2OC)=NC3)ccc1C(=O)O,GRK5,kinase activity,1 µM,,99%
C=CC(=O)N1CCC[C@@H](n2nc(-c3ccc(Oc4ccccc4)cc3)c3c(N)ncnc32)C1,ERBB4,"kinase activity, inhibitor, HotSpot radiometric","100 nM, added: ATP 10 µM",,1.9 ± 0.3%
CC(=O)Nc1c(N)nc(SCC(=O)N/N=C/c2ccc([N+](=O)[O-])cc2)[nH]c1=O,CDK2 with cyclin A2,kinase activity,500 nM,,48.5%
COc1ccc(F)cc1C(=O)NCc1ccc(-c2nn([C@@H](C)C(F)(F)F)c(N)c2C(N)=O)cc1,"SRMS (Homo sapiens, UniProt Q9H3Y6)","kinase activity, inhibitor, HotSpot radiometric","100 nM, added: ATP 10 µM",,89.3 ± 0.1%
O=C(O)c1ccc(Nc2ncc3c(n2)-c2ccc(Cl)cc2C(c2c(F)cccc2F)=NC3)cc1,Blk(m),kinase activity,1 µM,,53%
O=C1NC(=O)/C(=C/c2ccc(-c3ccc(F)cc3O)o2)S1,"BRSK2 (Homo sapiens, UniProt Q8IWQ3)",enzyme activity,10 µM,,44%
CC(C)(C)c1nc(-c2cccc(NS(=O)(=O)c3c(F)cccc3F)c2F)c(-c2ccnc(N)n2)s1,"Protein kinase C beta type, isoform beta-I (PRKCB, Homo sapiens, UniProt P05771)","kinase activity, radiometric 33PanQinase",1 µM,baseline: DMSO,99%
COc1cc(F)ccc1-c1ncnc(Nc2cccc(C[S@](C)(=N)=O)c2)n1,"DCLK2 (Homo sapiens, UniProt Q8N568)",kinase activity,"10 µM, added: 10 µM ATP",,82%
NC/C(=C\F)COc1cccc(Cn2c(=S)[nH]c(=O)c3[nH]cnc32)c1,"Peroxidasin homolog (PXDN, Homo sapiens, UniProt Q92626)",Amplex UltraRed,0.3125 µM,baseline: control,99.8%
COc1cc(N2CCN(C)CC2)ccc1Nc1nc(N)n(C(=O)NCc2ccccc2S(=O)(=O)C(C)C)n1,CDC42BPA,enzyme activity,10 µM,baseline: control,21%
C=CC(=O)N1CCC[C@@H](n2nc(-c3ccc(Oc4ccccc4)cc3)c3c(N)ncnc32)C1,ERBB4,,10 µM,,21.7%
C1=C/COCc2cc(ccc2OCCN2CCCC2)Nc2nccc(n2)-c2cccc(c2)COC/1,"EGFR (Homo sapiens, UniProt P00533, T790M)",,concentration not given,baseline: untreated control,94%
